Published values of several laboratories.
Each numbered part is a random draw from the data of one study; scales do not carry over between parts. Substitutions count along the parent as printed.

Block 1 — method: RNA Bind-n-Seq; molecule type: RNA; sample: in vitro; concentration: 200 nM; setting: whole 134-nt RNA, ends assumed; with: 150 mM KCl; relative to: input library; direction: higher = stronger binding; quantity: log2 enrichment
Target: Ras GTPase-activating protein-binding protein 1, full length (G3BP1, Homo sapiens, UniProt Q13283)
Sequence of UniProt Q13283 (whole entry, looked up): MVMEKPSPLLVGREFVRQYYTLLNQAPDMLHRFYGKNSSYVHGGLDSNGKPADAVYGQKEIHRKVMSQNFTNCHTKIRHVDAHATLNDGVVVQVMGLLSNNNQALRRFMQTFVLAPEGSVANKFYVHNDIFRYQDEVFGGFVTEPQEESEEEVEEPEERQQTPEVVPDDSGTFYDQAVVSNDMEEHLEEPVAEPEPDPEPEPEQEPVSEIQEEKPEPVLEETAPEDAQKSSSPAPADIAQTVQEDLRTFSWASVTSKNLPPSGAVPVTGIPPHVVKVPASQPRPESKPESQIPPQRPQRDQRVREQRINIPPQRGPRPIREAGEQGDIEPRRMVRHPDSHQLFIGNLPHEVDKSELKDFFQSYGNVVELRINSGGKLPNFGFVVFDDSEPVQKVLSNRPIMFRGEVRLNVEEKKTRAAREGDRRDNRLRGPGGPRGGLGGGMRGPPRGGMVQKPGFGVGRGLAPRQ
Sequence = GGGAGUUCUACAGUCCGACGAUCAGUCCUGUGCUACACAUCGUAUGUACCGAAUCGGAAAAAAAGGAAAAAAAGGAAAGGAAAGUAUUAUGUUACGCCGUUCGGAUCUGCACUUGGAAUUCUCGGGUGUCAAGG; value = -1.45
Sequence = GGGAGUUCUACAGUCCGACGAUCCCUGUGCUACACAUCGUAUGUACCGAAUCGGAAAAAAAGGAAAAAAAGGGAAAAAAAGGGAAAGUAUUAUGUUACGCCGUUCGGAUCUGCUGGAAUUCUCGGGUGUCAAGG; value = -1.04
Sequence = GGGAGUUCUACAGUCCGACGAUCCAGAACGAUCGAUACAGAAACCACGCUGCCGCCACCACACCAUCACCAUCGACAGAACAGUCCUUAAUCCAGAAACCUGAAAUGAAGGAAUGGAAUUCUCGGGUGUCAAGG; value = 0.697
Sequence = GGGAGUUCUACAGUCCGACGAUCCUCAAGUCCUGUGCUACACAUCGUAUGUACCGAAUCGGGAAAGGGUGGGUGGGAAAGUAUUAUGUUACGCCGUUCGGAUCUGCACUUCCAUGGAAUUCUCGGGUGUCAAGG; value = 1.13
Sequence = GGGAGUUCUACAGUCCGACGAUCCACAGACAACACGCACCCACACAGACACAGCGGGAAGGGGUUGGGAUGGGGACAGGGUGCACAGCAGGGCGGGGUAGGACCCCAGCCCCUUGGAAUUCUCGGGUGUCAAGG; value = 1.9
Sequence = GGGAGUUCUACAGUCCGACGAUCUUCCUCAAGUCCUGUGCUACACAUCGUAUGUACCGAAUCGGUGGAGGUGGAAAGUAUUAUGUUACGCCGUUCGGAUCUGCACUUCCAGCAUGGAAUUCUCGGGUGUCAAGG; value = -0.706
Sequence = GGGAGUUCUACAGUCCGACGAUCCCUCAAGUCCUGUGCUACACAUCGUAUGUACCGAAUCGGAGGAGGUUUUUGGAAAGUAUUAUGUUACGCCGUUCGGAUCUGCACUUCCAGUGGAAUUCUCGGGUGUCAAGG; value = -0.0919
Sequence = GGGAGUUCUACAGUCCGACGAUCUCCUGUGCUACACAUCGUAUGUACCGAAUCGGGGAAAAAAGGAAAAAAGGAAAAAAGGGGAAAGUAUUAUGUUACGCCGUUCGGAUCUGCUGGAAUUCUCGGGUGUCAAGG; value = -0.417
Sequence = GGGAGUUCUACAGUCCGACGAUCUCAAGUCCUGUGCUACACAUCGUAUGUACCGAAUCGGUUUGGUUUUUUUGGUGGAAAGUAUUAUGUUACGCCGUUCGGAUCUGCACUUCCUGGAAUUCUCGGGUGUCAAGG; value = -0.71
Sequence = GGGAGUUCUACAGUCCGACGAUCUCCUGUGCUACACAUCGUAUGUACCGAAUCAAACCCAAACCCCCCCAAACCCCCCCAAAAAAGUAUUAUGUUACGCCGUUCGGAUCUGCAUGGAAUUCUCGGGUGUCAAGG; value = 0.117

Block 2 — target: CCNA2, cyclin fold, Cln2 fusion (human); method: yeast growth competition, sequencing; sample: yeast; setting: strong parent motif; relative to: not given; direction: higher = stronger binding; quantity: normalised enrichment score
Starting sequence: MICAL3 docking peptide (human); LQLRRQLSFSEDS
Change = LQLRRLLSFSEDS [Q6L]; value = 1.05
Change = LQLERQLSFSEDS [R4E]; value = -0.28
Change = LQLRRPLSFSEDS [Q6P]; value = 0.456
Change = LQLRSQLSFSEDS [R5S]; value = -0.0847
Change = LDLRRQLSFSEDS [Q2D]; value = 2.35
Change = LQLRRRLSFSEDS [Q6R]; value = 5.54
Change = LQLVRQLSFSEDS [R4V]; value = 1.25
Change = LQLRRQLSFSCDS [E11C]; value = 3.59
Change = LQLRFQLSFSEDS [R5F]; value = 0.421
Change = LRLRRQLSFSEDS [Q2R]; value = 3.82
Change = LQLRRQLSFSEMS [D12M]; value = 3.67

Block 3 — method: protein-binding microarray; molecule type: double-stranded DNA, one strand shown; sample: in vitro; concentration: 2540 nM top; setting: 60-bp whole probe; with: salmon DNA 0.4 mg/ml; relative to: random background probes; direction: higher = stronger binding; quantity: fitted relative affinity; all sequences stand within: GCCTAGCAC … GTCTTGATTCGCTTGACGCTGCTG
Target: Interferon regulatory factor 3, full length, phosphomimetic (IRF3, Homo sapiens, UniProt Q14653, residues 1-427, S386D/S396D/S398D/S402D/T404D/S405D)
Sequence of UniProt Q14653 (whole entry, unmodified, looked up): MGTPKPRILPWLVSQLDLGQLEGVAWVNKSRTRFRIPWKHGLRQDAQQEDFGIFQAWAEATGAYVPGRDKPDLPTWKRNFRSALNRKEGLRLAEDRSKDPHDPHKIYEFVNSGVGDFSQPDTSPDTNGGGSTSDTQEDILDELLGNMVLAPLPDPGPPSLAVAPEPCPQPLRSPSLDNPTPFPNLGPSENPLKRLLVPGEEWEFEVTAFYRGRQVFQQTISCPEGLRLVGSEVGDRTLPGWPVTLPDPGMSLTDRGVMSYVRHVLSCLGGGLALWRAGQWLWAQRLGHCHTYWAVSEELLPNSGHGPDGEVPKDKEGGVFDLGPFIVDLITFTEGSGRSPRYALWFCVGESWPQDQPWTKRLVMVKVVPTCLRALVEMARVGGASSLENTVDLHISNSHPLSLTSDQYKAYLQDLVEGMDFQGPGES
Sequence = AAACCATCCTGTATGGATGTGTGCTAG; value = 0.783 z-score
Sequence = GACGGTCTCCTTCTTCTGACGTGCTAG; value = 3.88 z-score
Sequence = TTAGGACTGGACTATCGGTTAGTGCTA; value = -0.293 z-score
Sequence = TTAGAATTGAGTCTCGATTAGTGCTAG; value = -0.237 z-score
Sequence = TTAGCTTTCCTTTTCCTTTAGTGCTAG; value = 9.24 z-score
Sequence = TCATACTTCCCACTGGTACTGTGCTAG; value = 0.507 z-score
Sequence = GACGGACTGTACTATCGGGACGTGCTA; value = 0.00436 z-score
Sequence = GACGATATTAGTATCGAGACGTGCTAG; value = 0.7 z-score
Sequence = GAAGGTTTCGGGTATCGGGACGTGCTA; value = 4.17 z-score
Sequence = TTAGAACTGGGGTTTCGTTTAGTGCTA; value = 1.38 z-score
Sequence = GACAAACTGGGGTATCGAGACGTGCTA; value = -0.375 z-score
Sequence = AATGATTACATATATGTTGGTGTGCTA; value = 0.121 z-score
Sequence = GACGGACTGGACTTTCGGGGCGTGCTA; value = -0.303 z-score
Sequence = TTAGGACTGCTTCTCCTTCAGTGCTAG; value = -0.33 z-score
Sequence = TGAGGTATCGGGTTTCGGTTAGTGCTA; value = 3.81 z-score
Sequence = GACGAATTGAGTTTCGAGACGTGCTAG; value = 1.54 z-score
Sequence = TCACTTTTGCTTGTTCTTACTGTGCTA; value = 1.15 z-score
Sequence = ACGTTTTTCATTTTTTTTTTGTGCTAG; value = 2.25 z-score
Sequence = GGAGGCTCTTGCTACTGAAGGTGCTAG; value = -1.33 z-score
Sequence = TTAGGACTGAGTTTCGGTTAGTGCTAG; value = 3.5 z-score
Sequence = TTAAATTTCGGGTATCGATTAGTGCTA; value = 1.64 z-score
Sequence = GACAGACTGGGGTATCGGGACGTGCTA; value = -0.429 z-score
Sequence = GACGGTTTCCTACTGCTCACGTGCTAG; value = 5.09 z-score
Sequence = GACGGTATCCTGTTCCTGACGTGCTAG; value = 2.21 z-score
Sequence = TTAGGTCTCGGGTTTCGGTTAGTGCTA; value = 2.57 z-score

Block 4 — method: RNA Bind-n-Seq; molecule type: RNA; sample: in vitro; concentration: 365 nM; relative to: no-protein control; direction: higher = stronger binding; quantity: RBNS enrichment (R)
Target: RNA binding protein fox-1 homolog 2, RRM domain, GST-SBP tag (RBFOX2, Homo sapiens, UniProt O43251-10, residues 100-194)
Setting: natural RNA segment, single round, ends assumed
Construct (chain): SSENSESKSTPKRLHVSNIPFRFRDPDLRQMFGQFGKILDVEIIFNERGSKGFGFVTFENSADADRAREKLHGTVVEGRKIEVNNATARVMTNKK
Sequence = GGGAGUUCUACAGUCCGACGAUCACUCUGAAAGAGAUUGACAUUUUUCUCAACAGGAAUCCAUACUUAACAGUUCUGGCUUUCAUUAAAUUUUGCUCUUUGGUACCUGGGCCUUUUAUUUAACAUAUAUAUUUUGGAAUUCUCGGGUGCCAA; value = 0.893
Sequence = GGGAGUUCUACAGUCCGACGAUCACUCUAAUCUUAAACAUGUUUCUUUAAAUAUUUAUAAGGCAGUUUAUUACAGAAUAUUUUCAUGCAAUCAUGUGCACAUUAUUGGUAGCAAACAUAGUAUAUCCUUUAGUUGGAAUUCUCGGGUGCCAA; value = 0.656
Sequence = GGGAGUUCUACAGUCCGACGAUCAGCUCUCUGUCCAACUGUUGAUUAUGUGAUUUUUCUGAUACGUCCAUUCUCAAAUGCCAGUGUGUUCACAUCUUCGCUCUGGCCAGCCCAUUCUGUAUUUAAAGCUUUUGUGGAAUUCUCGGGUGCCAA; value = 0.455
Sequence = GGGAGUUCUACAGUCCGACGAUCAUAAUUUUCUUUCCUUAGAAACCUGAGAGAAUGCUAGUCAUAACUGUACUAGUUACUAUGAAAAUGGAAAUAAUUAUCUUAGAAUAUUUUCAAAGUAGAGCGUGAGCAUGUGGAAUUCUCGGGUGCCAA; value = 0.784
Sequence = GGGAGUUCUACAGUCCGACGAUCUCUCUCCUGGCAUGAAAAUAAAGGAUUUUGUUGUUCCACUGCCCACUUCCCCCAUGUUGUCUUUCCCUUGGCCGCUGCCUCCUCUGGGUCACACUGCUUCUUAUCCUGAAUGGAAUUCUCGGGUGCCAA; value = 8.02
Sequence = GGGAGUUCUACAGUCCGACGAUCGAGAGCCUGGGUUAAUCAGUUCUGCAGCCCCUACGUGACACUGUGCUAGUUCUCCUUCUUCUGUCUCCUCCUUACCCUGGCCCUGCACCCCUGUACUUAAGAGGGAGAGGUGGAAUUCUCGGGUGCCAA; value = 1.17
Sequence = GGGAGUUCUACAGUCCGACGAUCUCUCCUUCUUGCAGGACACAAAUGAUAUCGCUUAGUCAUAAGUGUGGUAGACUGGAUCCUGACCAGAAGGAGGUCUGAUAUAAUAUCCAUCCAGACAAGAAAUCAACAUGUGGAAUUCUCGGGUGCCAA; value = 0.374
Sequence = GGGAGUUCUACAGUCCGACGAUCGGUUAGUAGCUACUCCCCGAGGCCCCAACCCGGGAAAUACUGCAGUGUUCCUUCCUGCAGGCCUUGGAGCCCUGACCAGGCCAGUCCUGGGCACUGCUUAGAUGGCUGUUUGGAAUUCUCGGGUGCCAA; value = 0.157
Sequence = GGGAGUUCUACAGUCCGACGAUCUCUUCAAAUGAAUGUGAGUGAAGCAGCCCAAGGCUCUUCCUUAAUUCCUCUGGAGUGAUGCUGUGCCAUGCUGGUCUUUGCUUCUAGUAAUAAAACAUCAAAUUAGGUUUUGGAAUUCUCGGGUGCCAA; value = 0.393
Sequence = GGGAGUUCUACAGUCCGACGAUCUCUCAUAGUAUAGAAAUGACAAGCACUGCUGGCUAUAGAGAAAAUGUUAUAAAAAUUGUCAUUGAAUUCUUUAAUGGUGUCCAACCACGAUGAUAUUGCUGAUCAAAAGUUGGAAUUCUCGGGUGCCAA; value = 1.53
Sequence = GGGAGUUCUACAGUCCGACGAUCUCCACCCACACCUAAGUCACAGAAUUUCUAAGUUCCCCAACUACUCUCACACCCUUUUAAAGAUAAAGUAUGUUGUAACCAGGAUGUCUUAAAUGAUUCUUUGUGUACCUUGGAAUUCUCGGGUGCCAA; value = 0.445
Sequence = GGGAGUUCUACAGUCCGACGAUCAUUGUAAAGACUGGGAUGGUUGUGUGGAAAACUUUUCUUGAGAGAACCUAUUGAAAGGAAUUUGUUGUCACCUUCUUAACUAGAAUAGUUGUUGAAGGUACCGCUUAAGCUGGAAUUCUCGGGUGCCAA; value = 0.505

For quick reference, copied from above (block 3):
Sequence = TTAGGACTGCTTCTCCTTCAGTGCTAG; value = -0.33 z-score
Sequence = TGAGGTATCGGGTTTCGGTTAGTGCTA; value = 3.81 z-score
Sequence = GACGAATTGAGTTTCGAGACGTGCTAG; value = 1.54 z-score
Sequence = TCACTTTTGCTTGTTCTTACTGTGCTA; value = 1.15 z-score
Sequence = ACGTTTTTCATTTTTTTTTTGTGCTAG; value = 2.25 z-score
Sequence = GGAGGCTCTTGCTACTGAAGGTGCTAG; value = -1.33 z-score
Sequence = TTAGGACTGAGTTTCGGTTAGTGCTAG; value = 3.5 z-score
Sequence = TTAAATTTCGGGTATCGATTAGTGCTA; value = 1.64 z-score
